# Measured values of several laboratories.
# Parts stem from different laboratories: compare values within a part only.

# Sample 1
# Target: PABPC1L2, full length, GST fusion (mouse, UniProt A0ABA7IW68)
# Technique: RNAcompete
# Molecule type: RNA
# Sample: in vitro
# Concentration: 20 nM
# Setting: 7-mer, probes averaged, single round
# Reference: mean of 7-mers
# Reading: higher = stronger binding
# Target sequence (chain): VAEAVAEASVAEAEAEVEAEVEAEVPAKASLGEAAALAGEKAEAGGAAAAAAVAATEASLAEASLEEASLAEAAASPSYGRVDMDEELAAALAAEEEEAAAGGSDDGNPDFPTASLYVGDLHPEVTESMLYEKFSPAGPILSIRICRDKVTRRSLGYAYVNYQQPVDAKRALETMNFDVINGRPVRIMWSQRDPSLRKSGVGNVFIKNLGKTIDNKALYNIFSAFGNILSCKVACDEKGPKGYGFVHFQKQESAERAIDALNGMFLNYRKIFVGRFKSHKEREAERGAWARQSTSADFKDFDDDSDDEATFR
Strand,7-mer Z-score
AGUUCUC,-0.389
CAUCGCC,-0.396
GGCACCA,0.124
UCGUCAC,-0.421

# Sample 2
# Target: Sal-like protein 4, full length isoform A (SALL4, Homo sapiens, UniProt Q9UJQ4, residues 1-1053)
# UniProt Q9UJQ4, sequence (whole entry, looked up): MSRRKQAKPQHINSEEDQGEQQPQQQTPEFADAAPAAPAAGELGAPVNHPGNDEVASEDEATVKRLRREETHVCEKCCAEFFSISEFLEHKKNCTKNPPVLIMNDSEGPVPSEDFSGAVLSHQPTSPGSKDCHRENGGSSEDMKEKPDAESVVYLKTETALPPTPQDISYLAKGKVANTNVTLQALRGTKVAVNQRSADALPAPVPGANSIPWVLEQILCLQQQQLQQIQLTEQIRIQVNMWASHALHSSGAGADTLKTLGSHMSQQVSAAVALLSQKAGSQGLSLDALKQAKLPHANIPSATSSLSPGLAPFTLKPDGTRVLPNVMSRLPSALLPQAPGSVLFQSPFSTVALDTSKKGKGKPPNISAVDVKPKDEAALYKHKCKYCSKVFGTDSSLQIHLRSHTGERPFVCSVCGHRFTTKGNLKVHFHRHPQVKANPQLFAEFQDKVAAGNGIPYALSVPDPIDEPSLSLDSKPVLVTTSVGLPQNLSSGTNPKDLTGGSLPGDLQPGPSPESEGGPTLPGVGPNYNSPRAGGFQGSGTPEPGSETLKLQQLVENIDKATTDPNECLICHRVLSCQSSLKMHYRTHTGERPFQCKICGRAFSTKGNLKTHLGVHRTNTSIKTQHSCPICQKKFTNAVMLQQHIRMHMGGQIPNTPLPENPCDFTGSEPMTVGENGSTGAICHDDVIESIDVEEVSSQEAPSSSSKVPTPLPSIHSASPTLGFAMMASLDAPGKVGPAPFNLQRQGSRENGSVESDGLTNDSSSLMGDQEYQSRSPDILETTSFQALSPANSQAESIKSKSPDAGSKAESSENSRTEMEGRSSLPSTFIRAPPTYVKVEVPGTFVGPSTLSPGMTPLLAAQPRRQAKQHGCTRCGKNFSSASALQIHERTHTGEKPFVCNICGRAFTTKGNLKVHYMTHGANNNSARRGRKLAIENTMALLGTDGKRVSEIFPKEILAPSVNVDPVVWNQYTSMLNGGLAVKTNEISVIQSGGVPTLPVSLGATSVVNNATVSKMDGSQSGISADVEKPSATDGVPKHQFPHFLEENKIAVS
# Technique: universal PBM
# Molecule type: double-stranded DNA, one strand shown
# Sample: in vitro
# Concentration: 600 nM
# Setting: 8-mer, flanks averaged, mean of replicates
# Reading: higher = stronger binding
Strand,E-score
CGGAACCC,-0.212
AAATTCAA,0.32
CCTGGTAA,-0.117

# Sample 3
# Target: Histone acetyltransferase KAT6A, both winged helices, GST fusion (KAT6A, Homo sapiens, UniProt Q92794, residues 1-181)
# Technique: protein binding microarray
# Molecule type: double-stranded DNA, one strand shown
# Sample: in vitro
# Concentration: not given
# Setting: 8-mer, flanks averaged, mean of 2 arrays, mostly near background
# Reference: not given
# Reading: higher = stronger binding
# Residues (chain): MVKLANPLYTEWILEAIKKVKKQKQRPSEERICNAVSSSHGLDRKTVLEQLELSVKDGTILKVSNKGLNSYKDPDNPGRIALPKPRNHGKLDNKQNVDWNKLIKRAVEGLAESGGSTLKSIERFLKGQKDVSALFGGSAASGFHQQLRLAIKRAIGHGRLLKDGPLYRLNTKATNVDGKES
Strand,E-score
AGTTATCC,-0.0954
GAATAAGC,-0.0344
GTACGTAC,0.0206
GCTGATGA,0.0049
GGCCTAAA,0.111

# Other studies, line by line
Molecule,target,assay,test system,setting,how to read,endpoint,result
"PhoQ, residues 284 288 289 292 302 303 GNNTDL","PhoP, residues 12 14 15 18 19 DLLYY (Escherichia coli, UniProt P23836)","Sort-seq, refers to: YFP reporter",E. coli,"PhoQ-PhoP variant library, together with: 10 µM Mg2+","reference: high Mg2+ state, higher = stronger signaling",fold induction,0.653

# Some of these lines once more (sample 3):
Strand,E-score
GTACGTAC,0.0206
